# Experimental data from different studies.
# A part holds a random share of what one study measured. Positions count from the first letter of the parent shown.

# Block 1 — method: protein-binding microarray; molecule type: double-stranded DNA, one strand shown; sample: in vitro; tested at: 0.8 µM; notes: whole 60-bp probe, no competitor; direction: higher = stronger binding; all sequences stand within: … GTCTTGATTCGCTTGACGCTGCTG
# Target: Centromere-binding protein 1, full length, N-terminal tag (CBF1, Saccharomyces cerevisiae, UniProt P17106, residues 1-351)
# UniProt P17106, sequence (whole entry, looked up): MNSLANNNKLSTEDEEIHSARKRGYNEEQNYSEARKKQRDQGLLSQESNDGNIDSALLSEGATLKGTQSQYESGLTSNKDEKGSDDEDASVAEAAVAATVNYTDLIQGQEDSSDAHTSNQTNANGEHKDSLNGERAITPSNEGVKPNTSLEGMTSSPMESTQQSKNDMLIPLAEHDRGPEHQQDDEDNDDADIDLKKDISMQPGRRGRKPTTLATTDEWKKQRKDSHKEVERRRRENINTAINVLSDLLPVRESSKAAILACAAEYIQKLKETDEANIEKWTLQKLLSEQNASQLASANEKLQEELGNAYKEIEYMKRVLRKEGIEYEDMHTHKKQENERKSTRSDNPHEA
Strand,fluorescence intensity [a.u.]
CTAACAACTTTATGTTTCACGTTATGAAAGAATTTC,673
GAACTATAAGTGTATCACACCATTATTAATGAGTAG,597
GAAGGAGAATAACATGTGATCTGAAAACTCATTTAG,3540
CTATAGTAGGTTCACGTTATGTCTCTCTTTAGCTTC,599
CTAATTCAAATACCCCCCGTGAAGTATCAGATGTTC,579
TGTACGAAGCTATGTGATCAGATTATAGTAGTTAGG,576
GAAAACCTGGCCACGAACGTGTGGTGGGCTAGTTAG,510
GAATTCCCATTTGGTCAGGAGGTATAAATCATATAG,815
GAATGCTGCTATGCGCACGATGAGCAAATCGGATAG,502
GAAACAAACAGCAACCACGTTCATAGTCTGAAATAG,550
GAATGTATGTAAACTCTGATGTAGGATCGCACTTAG,529
GAATTACTAGTTTATTATCACGTGCGGTGTAAGTAG,11900
GAATCACATCCACGTGACCAGTTTCCAATCGAATAG,18400
GAATCAGCACCTGCATAGGTGACCCTCTTTGGCTAG,536

# Block 2 — method: DHFR PCA, deep sequencing; sample: yeast; added: (+)-ABA 1.4 µM; relative to: wild-type fitted maximum; direction: higher = stronger binding
# Target: ABI1, truncated, D143A, DHFR fusion (Arabidopsis thaliana)
# Notes: methotrexate growth selection, single substitutions
# Parent: PYL1, truncated, DHFR fusion (Arabidopsis thaliana); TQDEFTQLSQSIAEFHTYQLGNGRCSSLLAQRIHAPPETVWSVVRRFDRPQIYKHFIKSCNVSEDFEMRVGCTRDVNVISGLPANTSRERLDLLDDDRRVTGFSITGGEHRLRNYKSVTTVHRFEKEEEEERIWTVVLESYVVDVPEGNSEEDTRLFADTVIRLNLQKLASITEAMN
Change,relative binding score [%]
L28H,3.93
N22K,65
V43E,-17.7
V44K,-8.74
R24L,21.1
P83W,2.02
E67C,40
R49S,46.4
N61D,60.4
T6M,64
R90E,6.47
C60G,-4.01
L8E,-6.61
F103N,-3.22
S117F,-9.8
D48W,-14.8

# Block 3 — method: protein-binding microarray; molecule type: double-stranded DNA, one strand shown; sample: in vitro; tested at: 2540 nM top; notes: 60-bp whole probe; added: salmon DNA 0.4 mg/ml; relative to: random background probes; direction: higher = stronger binding; all sequences stand within: GCCTAGCAC … GTCTTGATTCGCTTGACGCTGCTG
# Target: Interferon regulatory factor 3, full length, phosphomimetic (IRF3, Homo sapiens, UniProt Q14653, residues 1-427, S386D/S396D/S398D/S402D/T404D/S405D)
# UniProt Q14653, sequence (whole entry, unmodified, looked up): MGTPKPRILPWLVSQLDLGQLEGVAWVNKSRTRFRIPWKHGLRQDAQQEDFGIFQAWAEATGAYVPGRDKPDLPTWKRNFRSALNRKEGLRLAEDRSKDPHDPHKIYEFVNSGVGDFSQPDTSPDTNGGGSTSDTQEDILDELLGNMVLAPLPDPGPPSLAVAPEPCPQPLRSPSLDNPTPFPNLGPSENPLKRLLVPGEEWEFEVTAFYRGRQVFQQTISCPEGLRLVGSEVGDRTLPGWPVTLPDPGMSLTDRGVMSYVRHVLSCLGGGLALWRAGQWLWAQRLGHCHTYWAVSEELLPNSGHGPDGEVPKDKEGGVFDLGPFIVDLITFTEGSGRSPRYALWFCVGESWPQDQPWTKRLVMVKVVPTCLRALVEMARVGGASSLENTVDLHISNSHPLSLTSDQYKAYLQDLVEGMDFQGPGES
Strand,fitted relative affinity [z-score]
CTTTCTTTTATGCTCTTTCTGTGCTAG,5.22
TTAGGTATCCTTCTGCTTTAGTGCTAG,4.3
GACGGACTGGGGTATCGGGACGTGCTA,-0.484
AACGATATCAGTATCGAGACGTGCTAG,1.28
TCAGCTCTGTTGCCTGGTACTGTGCTA,0.0106
GAGTTTCTATTTTCTGAATGGTGCTAG,4.92
TACTGGACTGGGGTTTCCCGGTGCTAG,-0.453
TTAGATTTTAGTTCCGATTAGTGCTAG,2.2
TCATGTTTCCTTCCTCTACTGTGCTAG,5.47
GAGGATATCAGACTGGAGACGTGCTAG,-0.148
GACGGTCTCGGGCTCGGGACGTGCTAG,-0.263
TTAGAACTGGGGTTTCGATAAGTGCTA,0.81
GACGGTATCGGGGTTCGGGACGTGCTA,0.922
GAAGCCAGCTCTTTCGTTACGTGCTAG,0.199
TCCAGCCTGTTTCCAGCAGGGTGCTAG,0.967
TTAGGTTGCCTTTCCCTTTAGTGCTAG,6.59
GACGATTTCAGTTTCGAGTCGTGCTAG,5.45

# Block 4 — method: universal PBM; molecule type: double-stranded DNA, one strand shown; sample: in vitro; tested at: not given; direction: higher = stronger binding
# Target: Sal-like protein 4, full length isoform B (SALL4, Homo sapiens, UniProt Q9UJQ4-2, residues 1-616)
# Notes: 8-mer, flanks averaged, mean of replicates
# Residues (chain): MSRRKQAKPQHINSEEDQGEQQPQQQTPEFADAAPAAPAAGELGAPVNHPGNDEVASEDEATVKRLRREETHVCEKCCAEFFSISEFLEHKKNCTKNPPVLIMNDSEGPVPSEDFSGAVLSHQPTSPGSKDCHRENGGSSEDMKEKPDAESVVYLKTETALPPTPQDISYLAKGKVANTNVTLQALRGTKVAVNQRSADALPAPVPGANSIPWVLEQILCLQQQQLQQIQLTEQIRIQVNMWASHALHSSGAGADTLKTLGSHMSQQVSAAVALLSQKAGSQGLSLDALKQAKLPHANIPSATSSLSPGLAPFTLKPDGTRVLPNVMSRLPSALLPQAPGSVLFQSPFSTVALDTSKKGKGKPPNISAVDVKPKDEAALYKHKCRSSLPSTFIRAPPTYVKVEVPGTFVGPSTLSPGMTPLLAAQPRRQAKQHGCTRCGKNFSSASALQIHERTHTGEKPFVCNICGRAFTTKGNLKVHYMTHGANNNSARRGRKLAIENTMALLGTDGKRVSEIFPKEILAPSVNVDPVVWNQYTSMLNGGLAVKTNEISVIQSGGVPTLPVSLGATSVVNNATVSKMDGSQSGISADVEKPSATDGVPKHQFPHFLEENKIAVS
Strand,E-score
CTTGCATA,0.207
AGTTATAC,0.284
GGCACATA,0.127
TCGCTGAA,0.0946
CTTCAAGA,0.187
AGTTCGTA,-0.058
AATCAGTG,0.0344
GATGTAGC,-0.161
ATCATCAA,0.205
CCGACACG,-0.292
CTAGGGGC,-0.193
CATCACCC,-0.2
CCTAATTA,0.204
ACCCTGAC,-0.185
AGGGTTGG,-0.0691
ACTTGTCC,0.00582
ATAGCCGA,0.0717
AACTCATA,0.258
ACGAAATA,0.268
CAACAGCA,-0.0206
CACATCCG,-0.028
GGACTCCA,-0.15
GTCCGGAC,-0.0999
GCGCAGCA,-0.326
ACCGGGTA,-0.24

# Block 5 — method: RNA Bind-n-Seq; molecule type: RNA; sample: in vitro; tested at: not given; notes: RNA with constant flanks, ends assumed; relative to: input RNA pool; direction: higher = stronger binding
# Target: RING finger protein unkempt homolog, zinc fingers 1-6, GST-SBP tag (UNK, Homo sapiens, UniProt Q9C0B0, residues 30-357)
# All sequences stand within: GGGAGUUCUACAGUCCGACGAUC … CAACAGAGGAUUGAGCAUCA
# Construct (chain): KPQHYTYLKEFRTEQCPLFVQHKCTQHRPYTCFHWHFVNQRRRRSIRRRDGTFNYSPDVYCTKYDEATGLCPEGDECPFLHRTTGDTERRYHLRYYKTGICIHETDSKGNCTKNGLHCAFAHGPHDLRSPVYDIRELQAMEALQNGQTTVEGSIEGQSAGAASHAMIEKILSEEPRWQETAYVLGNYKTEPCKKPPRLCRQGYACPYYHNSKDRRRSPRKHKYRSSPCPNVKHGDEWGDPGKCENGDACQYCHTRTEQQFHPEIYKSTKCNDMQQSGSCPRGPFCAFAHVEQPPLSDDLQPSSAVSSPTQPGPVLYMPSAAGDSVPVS
Strand,bound/input enrichment
AAGCCCUACCAACAGCUACAGAAUAUCAUAUGCUAUGACUGUGUUGCCUUUUUUUUCCGCCCGUUUUCAUUGUGUUCUGUUUUCACUCUUGAUAAGUAAAAAACUCUGAAAUUGCCACUG,0.368 ratio
CGCCUGGUGGACAGCAAAGGCUUUGAUGAAUACAUGAAGGAGCUAGGAGUGGGAACCGCUUUGCGAAAAAUGGGCGCAAUGGCCAAGCCAGAUUGUAUCAUCACUUGUGAUGGUAAAAAC,0.13 ratio
AUUUUUUUAUUUGUUUUCAGGGGGGUUUUUUGGGGGAAAAUUUUUUUAAAUGGAAGCUUCCCGCAAGCCCCCCACCCCAAUCAACCUCUAUGCUUUCUUCUUAAAAAAAAAAAAAAAGGA,0.962 ratio
AAUGAAUCACUGAACAACCUCUUUAUUACUGAAGAAGAUUACCAGGCUCUGCGAACAUCAACCGAUGCUUAUGACAACUUUGACAACAUCUCACUUGCUCAGCGUUUGGAAAAACACGAA,0.0941 ratio
UGCUUUACUGGAAAGACCCAGAAUAUGCCAAGUAUCUAAAGUACCCUCAGUGUUUACACAUGUCCGAGCUGCUCCAAUAUGAACACUUCCGAAAGGAGCUGGUGAAUGCUCAGUGUGCGA,0.117 ratio
GACAUUUGGACAUUACUGGGGACGGUGCUUUAUCCAUUCCUGGCCAUAUGGAGAUUAAUCCGCAAUUUUUUAUUUAGCAAUCCUCCUCCUGCACAGACUUCAGCAAGAGCCACAUCCACA,1.74 ratio
GAACCUGAGCCAGCAGAAGAGUACACUGAGCAAAGUGAAGUUGAAUCAACAGAGUAUGUAAACCGACAGUUCAUGGCAGAAACACAGUUCACCAGUGGUGAAAAGGAGCAGGUAGAUGAG,0.258 ratio
GUGCUGCAGCAGCUCCCAGCCCCGUGCUAGGAAACAUGCCCCCAGGAGAUGGCAUGCCAGCCGGUCCCGUGCCACCAGGGUUCUUUCAGCCUUUUAUGUCGCCUCGGUACCCUGGCGGCC,0.245 ratio
ACCCUCAUCAACAUCCCAGCCCUAAACGACAGCGACUCUGAAGUGGAGGAUAUCUCGGAAACCGAGUCCAACCGGUCUUUCUCUCCAGAGGAGAGACGCCAGCAGUAUUCUGAUCAGGAU,0.143 ratio
UAAUGUUCUUAGAAAAGAAUUCUCAUUCAUCUUCCCAUAGUGAAAUUCUCUAGCACUGUAUUCCGAUUCUGGAUUUUUAUAAUUCAUGCUUAAUGUAUUAGACAUUUUUAGCCCAUAAUU,11.2 ratio
UCCCAGCCCUAGUGACCUUGUCUUCCCAUGGGCUUUUUUCCCUUCCUAGUGUCUGCAGGCCCGGUGCCUCCUCCAUAGGUGGUCCUGCUUUCUGUUCCUGGGGUUAGGGUGGCCCUCUCC,0.378 ratio

# Excerpt of the above (block 5):
Strand,bound/input enrichment
AAGCCCUACCAACAGCUACAGAAUAUCAUAUGCUAUGACUGUGUUGCCUUUUUUUUCCGCCCGUUUUCAUUGUGUUCUGUUUUCACUCUUGAUAAGUAAAAAACUCUGAAAUUGCCACUG,0.368 ratio
CGCCUGGUGGACAGCAAAGGCUUUGAUGAAUACAUGAAGGAGCUAGGAGUGGGAACCGCUUUGCGAAAAAUGGGCGCAAUGGCCAAGCCAGAUUGUAUCAUCACUUGUGAUGGUAAAAAC,0.13 ratio
AUUUUUUUAUUUGUUUUCAGGGGGGUUUUUUGGGGGAAAAUUUUUUUAAAUGGAAGCUUCCCGCAAGCCCCCCACCCCAAUCAACCUCUAUGCUUUCUUCUUAAAAAAAAAAAAAAAGGA,0.962 ratio
AAUGAAUCACUGAACAACCUCUUUAUUACUGAAGAAGAUUACCAGGCUCUGCGAACAUCAACCGAUGCUUAUGACAACUUUGACAACAUCUCACUUGCUCAGCGUUUGGAAAAACACGAA,0.0941 ratio
UGCUUUACUGGAAAGACCCAGAAUAUGCCAAGUAUCUAAAGUACCCUCAGUGUUUACACAUGUCCGAGCUGCUCCAAUAUGAACACUUCCGAAAGGAGCUGGUGAAUGCUCAGUGUGCGA,0.117 ratio
GACAUUUGGACAUUACUGGGGACGGUGCUUUAUCCAUUCCUGGCCAUAUGGAGAUUAAUCCGCAAUUUUUUAUUUAGCAAUCCUCCUCCUGCACAGACUUCAGCAAGAGCCACAUCCACA,1.74 ratio
GAACCUGAGCCAGCAGAAGAGUACACUGAGCAAAGUGAAGUUGAAUCAACAGAGUAUGUAAACCGACAGUUCAUGGCAGAAACACAGUUCACCAGUGGUGAAAAGGAGCAGGUAGAUGAG,0.258 ratio
GUGCUGCAGCAGCUCCCAGCCCCGUGCUAGGAAACAUGCCCCCAGGAGAUGGCAUGCCAGCCGGUCCCGUGCCACCAGGGUUCUUUCAGCCUUUUAUGUCGCCUCGGUACCCUGGCGGCC,0.245 ratio
ACCCUCAUCAACAUCCCAGCCCUAAACGACAGCGACUCUGAAGUGGAGGAUAUCUCGGAAACCGAGUCCAACCGGUCUUUCUCUCCAGAGGAGAGACGCCAGCAGUAUUCUGAUCAGGAU,0.143 ratio
UAAUGUUCUUAGAAAAGAAUUCUCAUUCAUCUUCCCAUAGUGAAAUUCUCUAGCACUGUAUUCCGAUUCUGGAUUUUUAUAAUUCAUGCUUAAUGUAUUAGACAUUUUUAGCCCAUAAUU,11.2 ratio
UCCCAGCCCUAGUGACCUUGUCUUCCCAUGGGCUUUUUUCCCUUCCUAGUGUCUGCAGGCCCGGUGCCUCCUCCAUAGGUGGUCCUGCUUUCUGUUCCUGGGGUUAGGGUGGCCCUCUCC,0.378 ratio
